Experimental data of several laboratories.
Lines come from different studies, so protocols differ. ± gives the spread as reported.
Effect on: binding
Alpha-mannosidase: Alpha-mannosidase (Canavalia ensiformis, UniProt C0HJB3)
Sequence of UniProt C0HJB3 (whole entry, looked up): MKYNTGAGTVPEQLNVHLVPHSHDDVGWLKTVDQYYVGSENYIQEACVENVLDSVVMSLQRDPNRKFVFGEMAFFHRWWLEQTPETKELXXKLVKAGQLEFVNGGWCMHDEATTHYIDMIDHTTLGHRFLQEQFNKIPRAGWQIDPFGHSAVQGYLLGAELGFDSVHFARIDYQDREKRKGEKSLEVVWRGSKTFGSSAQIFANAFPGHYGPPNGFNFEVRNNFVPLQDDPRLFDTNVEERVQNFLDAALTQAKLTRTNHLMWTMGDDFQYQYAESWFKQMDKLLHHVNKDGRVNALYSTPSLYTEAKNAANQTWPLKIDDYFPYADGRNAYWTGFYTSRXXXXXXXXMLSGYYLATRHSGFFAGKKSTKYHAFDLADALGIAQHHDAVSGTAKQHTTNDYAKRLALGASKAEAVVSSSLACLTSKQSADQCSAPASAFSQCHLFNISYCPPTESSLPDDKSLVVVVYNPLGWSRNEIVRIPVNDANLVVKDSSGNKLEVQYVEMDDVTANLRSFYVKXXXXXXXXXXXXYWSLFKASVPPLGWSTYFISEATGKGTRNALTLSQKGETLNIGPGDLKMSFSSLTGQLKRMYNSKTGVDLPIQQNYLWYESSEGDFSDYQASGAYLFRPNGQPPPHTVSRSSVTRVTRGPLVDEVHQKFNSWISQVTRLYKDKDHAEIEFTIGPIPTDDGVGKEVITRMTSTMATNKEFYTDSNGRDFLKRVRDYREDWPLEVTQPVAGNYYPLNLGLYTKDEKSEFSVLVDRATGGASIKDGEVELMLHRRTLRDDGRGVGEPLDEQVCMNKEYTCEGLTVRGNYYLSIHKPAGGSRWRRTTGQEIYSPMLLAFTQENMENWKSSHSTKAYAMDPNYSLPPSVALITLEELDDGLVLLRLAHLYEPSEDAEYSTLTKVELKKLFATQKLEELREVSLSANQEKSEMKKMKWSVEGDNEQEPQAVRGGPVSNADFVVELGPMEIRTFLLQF
ACTA1: Actin, alpha skeletal muscle (ACTA1, Oryctolagus cuniculus, UniProt P68135)
PTH1R: Parathyroid hormone/parathyroid hormone-related peptide receptor (PTH1R, Homo sapiens, UniProt Q03431)
Sequence of UniProt Q03431 (whole entry, looked up): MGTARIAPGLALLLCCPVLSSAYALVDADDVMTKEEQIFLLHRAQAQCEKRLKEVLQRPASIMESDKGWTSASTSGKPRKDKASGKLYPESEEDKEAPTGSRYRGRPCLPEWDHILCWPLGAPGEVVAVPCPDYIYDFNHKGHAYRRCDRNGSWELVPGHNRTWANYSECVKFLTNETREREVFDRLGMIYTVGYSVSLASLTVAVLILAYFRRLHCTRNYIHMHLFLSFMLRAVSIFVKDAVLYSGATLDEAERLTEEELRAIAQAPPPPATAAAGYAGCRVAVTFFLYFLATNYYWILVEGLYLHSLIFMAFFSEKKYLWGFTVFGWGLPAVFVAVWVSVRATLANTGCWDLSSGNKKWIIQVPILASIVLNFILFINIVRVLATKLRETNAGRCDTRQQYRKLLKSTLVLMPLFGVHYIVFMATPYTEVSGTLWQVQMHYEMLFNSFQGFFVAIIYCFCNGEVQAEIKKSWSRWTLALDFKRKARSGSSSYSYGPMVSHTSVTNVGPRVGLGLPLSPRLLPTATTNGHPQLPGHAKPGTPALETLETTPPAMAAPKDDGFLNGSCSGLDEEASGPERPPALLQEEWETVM
Sequence of UniProt Q7XKC8 (whole entry, looked up): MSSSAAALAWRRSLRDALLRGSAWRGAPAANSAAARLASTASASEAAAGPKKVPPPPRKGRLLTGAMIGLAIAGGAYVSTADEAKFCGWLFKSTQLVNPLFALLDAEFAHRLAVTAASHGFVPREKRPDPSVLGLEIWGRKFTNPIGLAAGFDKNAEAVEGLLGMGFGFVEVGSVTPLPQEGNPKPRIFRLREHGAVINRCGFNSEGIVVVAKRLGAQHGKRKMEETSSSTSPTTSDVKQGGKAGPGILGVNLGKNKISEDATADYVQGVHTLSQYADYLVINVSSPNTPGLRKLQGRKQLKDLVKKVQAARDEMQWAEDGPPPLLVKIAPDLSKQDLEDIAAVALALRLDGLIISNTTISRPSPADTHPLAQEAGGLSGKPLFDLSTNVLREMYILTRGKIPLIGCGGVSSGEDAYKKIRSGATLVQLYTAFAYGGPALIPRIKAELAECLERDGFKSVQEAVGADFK

SMILES = O=C(CCO)c1ccc(O)cc1; target = Alpha-mannosidase; assay = surface plasmon resonance; conditions = 25 °C; koff = 0.00705 s⁻¹
SMILES = CC(C)[C@H](NC(=O)[C@H](CCCCN)NC(=O)[C@H](C)NC(=O)[C@H](CCCCN)NC(=O)CNC(=O)[C@H](CCCNC(=N)N)NC(=O)[C@@H](NC(=O)[C@H](CCCCN)NC(=O)[C@@H](N)CO)[C@@H](C)O)C(=O)N[C@H](C(=O)NCC(=O)N[C@@H](CCCNC(=N)N)C(=O)N[C@@H](Cc1c[nH]c2ccccc12)C(=O)N[C@@H](CCCCN)C(=O)O)[C@@H](C)O; target = ACTA1; assay = SPR; conditions = pH 7; koff = 0.0278 s⁻¹
SMILES = Cc1ccc2c(c1Br)C(O)(CC(=O)c1ccc3c(c1)OCO3)C(=O)N2 (centres unmarked); target = Uncharacterized protein (Trypanosoma brucei brucei, UniProt Q386Q8); assay = surface plasmon resonance; system = Trypanosoma brucei; conditions = together with: GlcNAc-1-P 100 µM; koff = 0.13 ± 0.04 s⁻¹
SMILES = CC(C)[C@H](NC(=O)[C@H](CCCCN)NC(=O)[C@H](C)NC(=O)[C@H](CCCCN)NC(=O)CNC(=O)[C@H](CCCNC(=N)N)NC(=O)[C@@H](NC(=O)[C@H](CCCCN)NC(=O)[C@@H](N)CO)[C@@H](C)O)C(=O)N[C@H](C(=O)NCC(=O)N[C@@H](CS)C(=O)N[C@@H](Cc1c[nH]c2ccccc12)C(=O)N[C@@H](CCCCN)C(=O)O)[C@@H](C)O; target = ACTA1; assay = SPR; conditions = pH 7; koff = 0.0172 s⁻¹
SMILES = CC[C@H](C)[C@H](NC(=O)[C@H](CCC(=O)O)NC(=O)[C@H](CO)NC(=O)[C@@H](NC(=O)[C@@H](N)CO)C(C)C)C(=O)N[C@@H](CCC(N)=O)C(=O)N[C@@H](CC(C)C)C(=O)N[C@@H](CCSC)C(=O)N[C@@H](Cc1c[nH]cn1)C(=O)N[C@@H](CC(N)=O)C(=O)N[C@@H](CC(C)C)C(=O)NCC(=O)N[C@@H](CCCCN)C(=O)N[C@@H](Cc1c[nH]cn1)C(=O)N[C@@H](CC(C)C)C(=O)N[C@@H](CC(N)=O)C(=O)N[C@@H](CO)C(=O)N[C@@H](CCSC)C(=O)N[C@@H](CCC(=O)O)C(=O)N[C@@H](CCCNC(=N)N)C(=O)N[C@H](C(=O)N[C@@H](CCC(=O)O)C(=O)N[C@@H](Cc1c[nH]c2ccccc12)C(=O)N[C@@H](CC(C)C)C(=O)N[C@@H](CCCNC(=N)N)C(=O)N[C@@H](CCCCN)C(=O)N[C@@H](CCCCN)C(=O)N[C@@H](CC(C)C)C(=O)N[C@@H](CCC(N)=O)C(=O)N[C@@H](CC(=O)O)C(=O)N[C@H](C(=O)N[C@@H](Cc1c[nH]cn1)C(=O)N[C@@H](CC(N)=O)C(=O)N[C@@H](Cc1ccccc1)C(=O)N[C@@H](CCCCNC(=O)c1ccc2c(c1)C1(OC2=O)c2ccc(N(C)C)cc2Oc2cc(N(C)C)ccc21)C(N)=O)C(C)C)C(C)C; target = PTH1R; assay = NanoBRET; conditions = pH 5.5, acetate buffer; koff = 0.039 ± 0.006 s⁻¹
SMILES = O=c1c2ccccc2nc2n1CCC2O (centres unmarked); target = Alpha-mannosidase; assay = surface plasmon resonance; conditions = 25 °C; koff = 0.00194 s⁻¹
SMILES = CSCC[C@H](NC(=O)[C@H](CC(C)C)NC(=O)[C@H](CCC(N)=O)NC(=O)[C@H](Cc1c[nH]cn1)NC(=O)[C@H](CCC(=O)O)NC(=O)[C@H](CO)NC(=O)[C@@H](NC(=O)[C@@H](N)CO)C(C)C)C(=O)N[C@@H](Cc1c[nH]cn1)C(=O)N[C@@H](CC(N)=O)C(=O)N[C@@H](CC(C)C)C(=O)NCC(=O)N[C@@H](CCCCN)C(=O)N[C@@H](Cc1c[nH]cn1)C(=O)N[C@@H](CC(C)C)C(=O)N[C@@H](CC(N)=O)C(=O)N[C@@H](CO)C(=O)N[C@@H](CCSC)C(=O)N[C@@H](CCC(=O)O)C(=O)N[C@@H](CCCNC(=N)N)C(=O)N[C@H](C(=O)N[C@@H](CCC(=O)O)C(=O)N[C@@H](Cc1c[nH]c2ccccc12)C(=O)N[C@@H](CC(C)C)C(=O)N[C@@H](CCCNC(=N)N)C(=O)N[C@@H](CCCCN)C(=O)N[C@@H](CCCCN)C(=O)N[C@@H](CC(C)C)C(=O)N[C@@H](CCC(N)=O)C(=O)N[C@@H](CC(=O)O)C(=O)N[C@H](C(=O)N[C@@H](Cc1c[nH]cn1)C(=O)N[C@@H](CC(N)=O)C(=O)N[C@@H](Cc1ccccc1)C(=O)N[C@@H](CCCCNC(=O)c1ccc2c(c1)C1(OC2=O)c2ccc(N(C)C)cc2Oc2cc(N(C)C)ccc21)C(N)=O)C(C)C)C(C)C; target = PTH1R; assay = NanoBRET; conditions = pH 5.5, acetate buffer; koff = 0.088 ± 0.04 s⁻¹
SMILES = CN1C[C@H](c2cccc(C(F)(F)F)c2)[C@@H](C(=O)Nc2ccccc2F)C1=O; target = PYRD (Oryza sativa, UniProt Q7XKC8); assay = SPR; koff = 0.151 s⁻¹

A few entries again:
SMILES = O=c1c2ccccc2nc2n1CCC2O (centres unmarked); target = Alpha-mannosidase; assay = surface plasmon resonance; conditions = 25 °C; koff = 0.00194 s⁻¹
